Measurements of several laboratories.
Numbered parts are unrelated; each lists some results of a single study. Substitutions count along the parent as printed.

Set 1
Target: CCNA1, cyclin fold, Cln2 fusion (human)
Method: yeast growth competition, sequencing
Sample: yeast
Notes: weak parent motif
Relative to: not given
Direction: higher = stronger binding
Starting sequence: ORC1 docking peptide (human); PRARKRLELGNLG
Under “normalised enrichment score”, `A3Q` is recorded as 0.706.
`G10I` — result for “normalised enrichment score”: 0.403.
Under “normalised enrichment score”, `R6C` is recorded as 0.271.
Under “normalised enrichment score”, `G13M` is recorded as 0.342.
`P1W` — result for “normalised enrichment score”: 0.272.
`N11C`: “normalised enrichment score” 0.563.
For `E8I`, “normalised enrichment score” read 0.404.
`G10P` — result for “normalised enrichment score”: 0.268.
For `N11I`, “normalised enrichment score” read 0.323.
`L9S`: “normalised enrichment score” 0.589.
`A3N`: “normalised enrichment score” 0.579.
`G13S`: “normalised enrichment score” 0.428.
`E8K`: “normalised enrichment score” 0.0173.
`R2P` — result for “normalised enrichment score”: 0.316.
For `R4C`, “normalised enrichment score” read 0.136.
For `R6P`, “normalised enrichment score” read 0.183.
`R6N`: “normalised enrichment score” 0.306.
Under “normalised enrichment score”, `R2D` is recorded as 0.355.
Under “normalised enrichment score”, `E8V` is recorded as 0.542.
`L12R` — result for “normalised enrichment score”: 0.406.
`E8P`: “normalised enrichment score” 0.0939.
Under “normalised enrichment score”, `L7D` is recorded as 0.351.
`N11D` — result for “normalised enrichment score”: 0.687.
`A3T` — result for “normalised enrichment score”: 0.541.

Set 2
Target: Phosphate system positive regulatory protein PHO4, full length, GST-tagged (PHO4, Saccharomyces cerevisiae, UniProt P07270, residues 1-312)
Method: competition protein-binding microarray
Molecule type: double-stranded DNA, one strand shown
Sample: in vitro
Concentration: 2 µM
Notes: whole 60-bp probe, lowest competitor level
Together with: Cbf1 competitor, 0.05 µM
Direction: higher = stronger binding
Target sequence (chain): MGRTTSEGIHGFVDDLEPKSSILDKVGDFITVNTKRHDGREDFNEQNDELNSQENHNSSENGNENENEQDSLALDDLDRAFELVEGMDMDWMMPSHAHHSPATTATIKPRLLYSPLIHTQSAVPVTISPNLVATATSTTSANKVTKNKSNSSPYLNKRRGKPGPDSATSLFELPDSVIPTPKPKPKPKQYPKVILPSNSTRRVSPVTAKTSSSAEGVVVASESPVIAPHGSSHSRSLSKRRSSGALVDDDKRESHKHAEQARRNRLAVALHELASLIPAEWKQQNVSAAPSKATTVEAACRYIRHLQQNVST
The fluorescence intensity of `GTCTTGTCTCATTTTCACGTGTTTTTCCCCACTTCAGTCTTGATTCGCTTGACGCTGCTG` is reported as 12800 a.u.
`CTCTTAAGCGCAGGCCACGTGCAGACATCGCTTTCGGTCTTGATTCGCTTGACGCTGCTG` gave a fluorescence intensity of 18500 a.u.
With `GTCTTGTCTCATTGGGATGTGGGTGTCCCCACTTCAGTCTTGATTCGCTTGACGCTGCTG` the fluorescence intensity was 5240 a.u.
`TGCTGTTTCCTTGTCCACGTGAGTCAGTTCTGCAGAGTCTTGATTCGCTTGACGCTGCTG` gave a fluorescence intensity of 12200 a.u.
The fluorescence intensity of `ATTAGCTAGAATAATCGCGTGTGTTGTCTTGGCTGGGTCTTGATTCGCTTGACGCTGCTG` is reported as 7950 a.u.
`AAATTACTAAGTTGAATCGTGGGTGACGCCGTATGAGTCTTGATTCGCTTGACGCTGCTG` gave a fluorescence intensity of 7120 a.u.
For `TATTCATTGCAGTTACACGTGAAGGCTAAACTTTATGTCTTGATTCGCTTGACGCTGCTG`, the fluorescence intensity was 12000 a.u.
For `CTAACGAAGGTTTTCCACGTGTTTTACAAGCCAAGTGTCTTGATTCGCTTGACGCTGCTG`, the fluorescence intensity was 15700 a.u.
For `CGTTATTGATATCGGCACGCAATGGTACTGGGGCAAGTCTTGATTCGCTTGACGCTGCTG`, the fluorescence intensity was 7550 a.u.
For `GAGAGGAAGACGCGTTTCGTGGGACTTGGACCACTAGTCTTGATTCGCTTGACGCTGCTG`, the fluorescence intensity was 4280 a.u.
With `AAAAAAATAAATGAACACATGGAAATAAGTCAAGGAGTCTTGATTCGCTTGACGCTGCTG` the fluorescence intensity was 8450 a.u.
`AAAGCGGTAATTTGTCACATTACTTCACATATCTATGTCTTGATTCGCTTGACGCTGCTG` gave a fluorescence intensity of 3780 a.u.
For `CGAGAAGCTTTCGGCCACGTGGGTATCTGGATTCAAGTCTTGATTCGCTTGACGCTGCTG`, the fluorescence intensity was 17200 a.u.
`GCCCAAAGACCCGGCCACGTTCAGGCCCCATCAATAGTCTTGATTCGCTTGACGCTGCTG` gave a fluorescence intensity of 10300 a.u.

Set 3
Target: Histone acetyltransferase KAT6A, both winged helices, GST fusion (KAT6A, Homo sapiens, UniProt Q92794, residues 1-181)
Method: protein binding microarray
Molecule type: double-stranded DNA, one strand shown
Sample: in vitro
Concentration: not given
Notes: 8-mer, flanks averaged, mean of 2 arrays, mostly near background
Relative to: not given
Direction: higher = stronger binding
Target sequence (chain): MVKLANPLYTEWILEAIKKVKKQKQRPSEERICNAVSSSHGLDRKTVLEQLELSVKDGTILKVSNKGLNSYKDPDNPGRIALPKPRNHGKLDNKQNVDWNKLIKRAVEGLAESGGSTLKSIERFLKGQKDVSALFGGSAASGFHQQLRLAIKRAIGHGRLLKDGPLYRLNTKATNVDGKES
`CCTTCGAC` gave an E-score of -0.00341.
`ATCTAAGG` has an E-score of -0.125.
With `ATTATCTC` the E-score was -0.0874.
For `CTTATCCA`, the E-score was -0.0534.
`CTGCCCCA` gave an E-score of -0.184.
`CCTAGGTA` gave an E-score of -0.131.
With `CGGCCGAA` the E-score was 0.291.
For `ATATTACC`, the E-score was 0.0398.
With `GACATCAC` the E-score was 0.0549.
`AAGAGTAG` gave an E-score of -0.16.
The E-score of `GTGGACCA` is reported as -0.168.
The E-score of `AGGGGTCG` is reported as -0.195.
`AACGTCTA` has an E-score of -0.0373.
For `GCTTCGAC`, the E-score was 0.0186.
With `TATATGCA` the E-score was 0.001.
`AGGTAACG` has an E-score of 0.085.

Set 4
Target: Sal-like protein 4, full length isoform A (SALL4, Homo sapiens, UniProt Q9UJQ4, residues 1-1053)
Sequence of UniProt Q9UJQ4 (whole entry, looked up): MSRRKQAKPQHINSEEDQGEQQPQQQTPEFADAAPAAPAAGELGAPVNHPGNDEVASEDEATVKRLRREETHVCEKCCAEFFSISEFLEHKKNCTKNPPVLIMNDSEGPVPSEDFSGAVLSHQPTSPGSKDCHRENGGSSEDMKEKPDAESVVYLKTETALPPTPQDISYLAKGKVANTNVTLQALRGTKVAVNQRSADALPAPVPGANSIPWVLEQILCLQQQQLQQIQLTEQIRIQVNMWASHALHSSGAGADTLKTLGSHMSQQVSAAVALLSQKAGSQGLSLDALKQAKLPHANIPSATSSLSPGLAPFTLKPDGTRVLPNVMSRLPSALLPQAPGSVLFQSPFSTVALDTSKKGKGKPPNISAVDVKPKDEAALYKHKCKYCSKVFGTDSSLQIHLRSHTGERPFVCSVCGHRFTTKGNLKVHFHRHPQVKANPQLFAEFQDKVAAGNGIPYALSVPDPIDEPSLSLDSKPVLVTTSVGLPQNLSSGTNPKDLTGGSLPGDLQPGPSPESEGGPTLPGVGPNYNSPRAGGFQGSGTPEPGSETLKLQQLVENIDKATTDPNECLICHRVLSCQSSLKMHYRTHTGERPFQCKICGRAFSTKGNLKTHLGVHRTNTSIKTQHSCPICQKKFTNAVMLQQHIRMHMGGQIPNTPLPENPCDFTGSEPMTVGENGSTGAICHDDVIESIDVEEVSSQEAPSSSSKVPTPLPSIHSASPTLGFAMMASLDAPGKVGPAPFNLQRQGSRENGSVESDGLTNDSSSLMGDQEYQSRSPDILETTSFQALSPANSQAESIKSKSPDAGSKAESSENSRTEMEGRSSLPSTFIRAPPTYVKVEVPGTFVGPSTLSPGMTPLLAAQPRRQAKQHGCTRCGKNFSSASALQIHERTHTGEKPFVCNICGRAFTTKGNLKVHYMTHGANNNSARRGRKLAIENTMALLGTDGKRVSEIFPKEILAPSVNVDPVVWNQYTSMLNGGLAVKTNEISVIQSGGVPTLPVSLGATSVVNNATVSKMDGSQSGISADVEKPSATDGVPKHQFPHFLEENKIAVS
Method: universal PBM
Molecule type: double-stranded DNA, one strand shown
Sample: in vitro
Concentration: 600 nM
Notes: 8-mer, flanks averaged, mean of replicates
Direction: higher = stronger binding
The E-score of `AGAGTGTC` is reported as 0.0512.
The E-score of `AGTTCTTA` is reported as 0.205.
`ATACGCAC` gave an E-score of 0.132.
For `AAAGCAAA`, the E-score was 0.148.
With `TAACTACA` the E-score was 0.176.
With `ACAAAAAC` the E-score was 0.162.
`AATACGCC` gave an E-score of 0.0646.
`ATTATTCA` has an E-score of 0.342.
The E-score of `ATTGATTC` is reported as 0.183.
`AGCAGATG` gave an E-score of -0.18.
`CCAACGCA` gave an E-score of 0.0105.
With `CGGCTTGC` the E-score was -0.224.
With `ACATGCCC` the E-score was -0.117.
With `GAGACTAA` the E-score was 0.189.
For `ATTAGCCA`, the E-score was 0.112.
With `AGTCTTCC` the E-score was -0.103.
With `CCGCCCCG` the E-score was -0.214.
`CCGGTCGA` has an E-score of -0.419.
`AAATAGAC` has an E-score of 0.137.
The E-score of `CGCCGGGA` is reported as -0.369.
The E-score of `ATCAACAT` is reported as 0.31.
`AAGTGGTG` has an E-score of 0.0138.
For `AGCGACTA`, the E-score was 0.0133.
For `ACCTAACC`, the E-score was -0.0982.

Set 5
Target: CREBRF, bZIP domain (human)
Method: DHFR protein complementation
Sample: yeast
Notes: single substitutions, most at no-binding floor
Relative to: wild-type JUN-FOS pair
Direction: higher = stronger binding
Starting sequence: JUN, bZIP domain (human); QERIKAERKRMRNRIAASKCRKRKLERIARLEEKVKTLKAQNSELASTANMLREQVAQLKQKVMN; partner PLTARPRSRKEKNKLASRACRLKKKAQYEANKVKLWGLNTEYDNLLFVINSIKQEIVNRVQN
The binding fitness of `A46C` is reported as -1.09 natural log.
The binding fitness of `V35H` is reported as -1.38 natural log.
For `L59T`, the binding fitness was -1.44 natural log.
The binding fitness of `E44K` is reported as -1.51 natural log.
With `E32M` the binding fitness was -1.41 natural log.
`A57N` has a binding fitness of -1.67 natural log.
With `K39M` the binding fitness was -1.52 natural log.
`E32S` gave a binding fitness of -1.45 natural log.
The binding fitness of `V56N` is reported as -1.65 natural log.
The binding fitness of `A40Y` is reported as -1.62 natural log.
The binding fitness of `A49D` is reported as -1.49 natural log.
`E33W` has a binding fitness of -1.2 natural log.
`M51V` gave a binding fitness of -1.52 natural log.
For `L45M`, the binding fitness was -1.42 natural log.
`S43H` gave a binding fitness of -1.53 natural log.
`A57H` gave a binding fitness of -1.58 natural log.
`Q41M` gave a binding fitness of -1.52 natural log.
For `E54V`, the binding fitness was -1.38 natural log.
`K36R` gave a binding fitness of -1.45 natural log.
With `R30V` the binding fitness was -1.33 natural log.
For `T37Y`, the binding fitness was -1.66 natural log.
With `I28Y` the binding fitness was -0.92 natural log.
`L45I` gave a binding fitness of -1.62 natural log.
The binding fitness of `L52T` is reported as -1.52 natural log.
The binding fitness of `S43C` is reported as -1.16 natural log.

Mixed results
For `PhoQ, residues 284 288 289 292 302 303 AGHLVA`, the fold induction was 4.6 (PhoP, residues 12 14 15 18 19 AGCRL (Escherichia coli, UniProt P23836); Sort-seq, refers to: YFP reporter; E. coli; PhoQ-PhoP variant library, together with: 10 µM Mg2+; relative to: high Mg2+ state, higher = stronger signaling).

A few entries again (set 5):
The binding fitness of `A46C` is reported as -1.09 natural log.
The binding fitness of `V35H` is reported as -1.38 natural log.
For `L59T`, the binding fitness was -1.44 natural log.
The binding fitness of `E44K` is reported as -1.51 natural log.
With `E32M` the binding fitness was -1.41 natural log.
`A57N` has a binding fitness of -1.67 natural log.
With `K39M` the binding fitness was -1.52 natural log.
`E32S` gave a binding fitness of -1.45 natural log.
